Experimental data gathered from unrelated publications.
Lines come from different studies, so protocols differ. “And” joins repeats or separate records; there may be more than shown. ± marks the error that the study gave. Non-standard residues stand in square brackets, D forms with d.

Molecule	target	assay	system	setting	scale	endpoint	result
[Cl-].[Cl-].[Mg+2]	bovine lens protease			1 mM, 37 °C		remaining activity	111%
CC(=O)N[C@@H](CC(=O)O)C(=O)N[C@@H](CC(C)C)C(=O)N[C@@H](Cc1c[nH]c2ccccc12)C(=O)N[C@@H](CCCCN)C(=O)N[C@@H](CC(C)C)C(=O)NCCCOCCOCCOCCCNC(=O)CCCCCCCCCCS	anti-p53 antibody	binding, AFM force spectroscopy		second monolayer		adhesion pull-off force	1.3e-10 ± 2.9e-11 N
Nc1nc2c(ncn2[C@@H]2O[C@H](COP(=O)(O)OP(=O)(O)OP(=O)(O)O)[C@@H](O)[C@H]2O)c(=O)[nH]1	volume-regulated anion channel			added: total nucleotide 1 mM		Kd	410000 nM
COc1ccc(CCCOC(Cn2ccnc2)c2ccc(OC)cc2)cc1 (stereo not drawn)	muscarinic receptor-gated TRPC4 channel (mouse)	receptor-gated current, inhibitor, whole-cell patch clamp		10 µM, holding potential -60 mV, added: 100 µM carbachol		inhibition	55.5 ± 5.6%
COC(=O)c1ccccc1O	cysteine peptide Ac-RFAACAA-COOH	DPRA RapidFire-MS/MS		24 h, pH 7.5, added: 5.0 µM cysteine peptide		peptide depletion	inactive
IINFEKE	ERAP1 human wild type	activator	peptide	100 µM, pH 8.0, 27 °C, added: L-AMC substrate		K1/2 of L-AMC	0.34 ± 0.08 mM
CN(C)CC[C@@H]1NC(=O)c2coc(n2)-c2coc(n2)-c2cccc(c2)-c2cccc(c2)-c2nc(co2)-c2nc(co2)CNC1=O	human telomeric quadruplex d(TTAGGG)4	UV melting		20 µM, pH 7.5, added: 150 mM K+	baseline: DNA without compound	melting temperature shift	10.6 °C
COC1=CC(c2cc3ccccc3[nH]2)=N/C1=C\c1[nH]c(C)cc1C	pre-miR-21 RNA	differential scanning fluorimetry			baseline: untreated, positive = stabilisation	maximal ΔTm	3.2 °C
Nc1ncnc2c1ncn2[C@@H]1O[C@H](COP(=O)(O)OP(=O)(O)NP(=O)(O)O)[C@@H](O)[C@H]1O	rod CNG channel, Ambystoma tigrinum	ion current, inhibitor, inside-out patch clamp		500 µM, 1 min, closed channels, added: 100 µM genistein		genistein inhibition	decreased
CC(O)C(=O)O (stereo not drawn)	cysteine peptide Ac-RFAACAA-COOH	DPRA RapidFire-MS/MS		24 h, pH 7.5, added: 5.0 µM cysteine peptide		peptide depletion	inactive
Cc1cncc2cccc(S(=O)(=O)N3CCCN(C(=O)CN)C[C@@H]3C)c12	panel of 300 human kinases			0.5 µM	direction not given	Gini score	0.738
COC(=O)C1=C(C)NC(C)=C(C(=O)OC)C1c1ccccc1[N+](=O)[O-]	T-type calcium channel, guinea pig	calcium current, blocker, whole-cell patch clamp	guinea pig atrial myocytes			Kd	100 nM
Cc1cccc(-c2[nH]c(C(C)(C)C)nc2-c2ccc3nccnc3c2)n1	ERK1/2 (rat)	inhibitor, Western blot	NRK-52E	1 µM, 15 min, added: TGF-beta 5 ng/mL		ERK1/2 phosphorylation	inhibited
O=c1c(O[C@@H]2O[C@H](CO)[C@@H](O)[C@H](O)[C@H]2O)c(-c2ccc(O)c(O)c2)oc2cc(O)cc(O)c12	Sult1a1 (rat)	western blot, item: SULT1A1	rats, liver	intravenous, 5 mg/kg, 7 days	baseline: vehicle control	protein level decrease	32.4%
WHGSLKQNLWWY	VEGFR-3 (human)	binding, ELISA	peptide			affinity constant	16.4 ± 8.6 µg/mL
CC(C=O)Cc1ccc(C(C)(C)C)cc1 (stereo not drawn)	cysteine peptide Ac-RFAACAA-COOH	DPRA RapidFire-MS/MS		24 h, pH 7.5, added: 5.0 µM cysteine peptide		maximal peptide depletion	-15.4%
CC(C)(C)OC(=O)NCC[C@@H]1NC(=O)c2coc(n2)-c2coc(n2)-c2cccc(c2)-c2cccc(c2)-c2nc(co2)-c2nc(co2)CNC1=O	human telomeric quadruplex d(TTAGGG)4	UV melting		20 µM, pH 7.5, added: 150 mM K+	baseline: DNA without compound	melting temperature shift	1.1 °C
CCCCCCCC/C=C\CCCCCCCC(=O)OCC(COC(=O)CCCCCCC/C=C\CCCCCCCC)OC(=O)CCCCCCC/C=C\CCCCCCCC	amyloid beta peptide	brain/serum ratio	male CD-1 mouse	intravenous, 7.2 mg, 10 min, added: radioiodinated Aβ co-injected		brain uptake of I-Aβ	no effect
OCC(O)CO	cysteine peptide Ac-RFAACAA-COOH	DPRA RapidFire-MS/MS		24 h, pH 7.5, added: 5.0 µM cysteine peptide		peptide depletion	inactive
IINFEKL	ERAP1 human L734R	activator	peptide	100 µM, pH 8.0, 27 °C, added: L-AMC substrate		Vmax of L-AMC hydrolysis	351 ± 5 nmol/min/µg
Nc1nc2c(ncn2[C@@H]2O[C@@H]3COP(=O)(O)O[C@H]3[C@H]2O)c(=O)[nH]1	rod cyclic nucleotide-gated channel, Ambystoma tigrinum	ion current, agonist, inside-out patch clamp		after EDTA/EGTA exposure, added: calmodulin 200 nM, Ca2+ 20 µM, Mg2+ 100 µM		Hill coefficient	2.44 and 2.47
C=CC(=O)Nc1ccc(C(=O)Nc2n[nH]c3c2CN(C(=O)N[C@H](CN(C)C)c2ccccc2)C3(C)C)cc1	human CDK7	RNA polymerase II phosphorylation, inhibitor	HeLa	6 h		minimum effective concentration	62.5 nM
N[C@@H](CCC(=O)Nc1ccc(-c2ccc(F)cc2)cc1)C(=O)O	glutamate transporters		PC-3	concentration not given, 5 min, 37 °C, added: [3H]-L-glutamate 150 µM	baseline: basal uptake	[3H]-L-glutamate uptake	110 ± 13%
CCCC[C@H]1CCCCCCc2[nH]c(/C=C3\N=CC(c4ccc[nH]4)=C3OC)cc21	pre-miR-21 RNA	differential scanning fluorimetry			baseline: untreated, positive = stabilisation	maximal ΔTm	3.1 °C

Molecule	target	assay	system	setting	scale	endpoint	result
CC(C)[C@@H]1NC(=O)c2coc(n2)-c2coc(n2)-c2coc(n2)[C@H](CCN(C)C)NC(=O)c2coc(n2)-c2coc(n2)-c2coc1n2	human telomeric quadruplex d(TTAGGG)4	UV melting		20 µM, pH 7.5, added: 150 mM K+	baseline: DNA without compound	melting temperature shift	29.1 °C
NCCCCCCCCNS(=O)(=O)c1cccc2c(I)cccc12	anoctamin-1 rat	Ca2+-activated Cl- current	HEK293 transfected	50 µM, 10 to 70 min, -70 mV		current density	271 ± 56 pA/pF
CC(=O)N[C@@H](CC(N)=O)C(=O)NCC(=O)N[C@@H](CCCCN)C(=O)N[C@@H](C)C(N)=O	Asn-Gly peptide isomerisation to succinimide	1H NMR time course		pH 7.4, 46 °C		rate constant k1	0.074 h⁻¹
CC(=O)OCC[N+](C)(C)C	muscarinic acetylcholine receptor (Aquarana catesbeiana)	IK(M) current, agonist, whole-cell patch clamp	bullfrog atrial myocytes			EC50	159 nM
CC(C)[C@@H]1NC(=O)c2coc(n2)-c2coc(n2)-c2cccc(c2)-c2cccc(c2)-c2nc(co2)-c2nc(co2)CNC1=O	human telomeric quadruplex d(TTAGGG)4	UV melting		20 µM, pH 7.5, added: 150 mM K+	baseline: DNA without compound	melting temperature shift	4.1 °C
Nc1ncnc2c1ncn2[C@@H]1O[C@H](COP(=O)(O)OP(=O)(O)O)[C@@H](O)[C@H]1O	volume-regulated anion channel			added: total nucleotide 1 mM		Kd	810000 nM
WHWNAWALPTHG	VEGFR-3 (human)	binding, ELISA	peptide			affinity constant	9.2 ± 2.1 µg/mL
O=C1CNC(=O)c2coc(n2)-c2coc(n2)-c2cccc(c2)-c2cccc(c2)-c2nc(co2)-c2nc(co2)CN1	human telomeric quadruplex d(TTAGGG)4	UV melting		20 µM, pH 7.5, added: 50 mM K+	baseline: DNA without compound	melting temperature shift	4.8 °C
Clc1ccc(C(c2ccccc2Cl)C(Cl)Cl)cc1 (stereo not drawn)	estrogen receptor alpha (human)	luciferase reporter gene, agonist	BG1Luc4E2	10 µM, 24 h	baseline: maximum of estradiol	efficacy	52 ± 1%
CC(C=O)Cc1ccc(C(C)C)cc1 (stereo not drawn)	cysteine peptide Ac-RFAACAA-COOH	DPRA RapidFire-MS/MS		24 h, pH 7.5, added: 5.0 µM cysteine peptide		maximal peptide depletion	-14.8%
H-H[dW][dK]W[dF]K-NH2 (D-Trp, D-Lys, D-Phe, C-amide)	CXCR4 (human)	T cell chemotaxis, antagonist, Transwell migration	primary human T cells	concentration not given, 5 h, 37 °C, added: CXCL12 10 nM		inhibition	20 to 60%
CC(C)=CCC/C(C)=C/CC/C(C)=C/CSc1ccccc1C(=O)O	mTOR	inhibitor, Western blot, item: phospho-p70S6K	cancer cells			effective concentration	25 µM
CC(C)[C@@H]1NC(=O)c2coc(n2)-c2coc(n2)-c2coc(n2)C/C=C/c2coc(n2)-c2coc(n2)-c2coc1n2	human telomeric quadruplex d(TTAGGG)4	UV melting		20 µM, pH 7.5, added: 150 mM K+	baseline: DNA without compound	melting temperature shift	30.1 °C
O=C(OCc1ccccc1)c1ccccc1	cysteine peptide Ac-RFAACAA-COOH	DPRA RapidFire-MS/MS		24 h, pH 7.5, added: 5.0 µM cysteine peptide		peptide depletion	inactive
CN1C(=O)C=CC1=O	bovine lens protease			0.2 mM, 37 °C		remaining activity	12%
CN1CCCC2C(c3ccccc3)C(C3=NCCCC3)C(c3ccccc3)CC21 (stereo not drawn)	pre-miR-21 RNA	differential scanning fluorimetry			baseline: untreated, positive = stabilisation	maximal ΔTm	-14 °C
CCCCCCC(C=O)=Cc1ccccc1	cysteine peptide Ac-RFAACAA-COOH	DPRA RapidFire-MS/MS		24 h, pH 7.5, added: 5.0 µM cysteine peptide		peptide depletion	inactive
c1cnc2c(c1)ccc1cccnc12	bovine lens protease			1 mM, 37 °C		remaining activity	1%
O=C1N[C@@H](Cc2ccccc2)C(=O)NCc2coc(n2)-c2coc(n2)-c2cccc(c2)-c2cccc(c2)-c2nc(co2)-c2nc1co2	human telomeric quadruplex d(TTAGGG)4	UV melting		20 µM, pH 7.5, added: 50 mM K+	baseline: DNA without compound	melting temperature shift	2.8 °C
CCO/C=C1\N=C(c2ccccc2)OC1=O	cysteine peptide Ac-RFAACAA-COOH	DPRA RapidFire-MS/MS		24 h, pH 7.5, added: 5.0 µM cysteine peptide		maximal peptide depletion	-95.4%
C[C@@H](O)[C@H](N)C(=O)O	TsaB TsaC TsaD TsaE, Escherichia coli	substrate		23 °C, added: ATP 1 mM, tRNALys 10 µM		Km	590 ± 90 µM
Nc1ncnc2c1ncn2[C@H]1C[C@@H]2OP(=O)(O)OC[C@H]2O1	cAMP antibody	binding, non-acetylated EIA				EC50	19 nM
CC(C)C[C@H](NC(=O)[C@@H](O)[C@H](N)Cc1ccccc1)C(=O)O	bovine lens protease			0.5 mM, 37 °C		remaining activity	88%
CCCCCCCCc1ccc(CC[C@](N)(CO)COP(=O)(O)O)cc1	human GIRK channel	ion current, activator, patch clamp	human atrial myocytes		baseline: 20 µM carbachol	EC50	8.5 nM
